# Assay results from different studies.
# A part holds a random share of what one study measured. “And” joins repeats or separate records; there may be more than shown. ± gives the spread as reported.

# Block 1 — organism: MERS-CoV spike VSV pseudovirus; effect on: pseudovirus entry; tested at: 10 µM
SMILES,inhibition [%]
CNC(=O)C(C#N)(Cc1cc(Cl)cc2c1OCOC2)Cc1cc(Cl)cc2c1OCOC2,93
O=C(c1ccc(-c2ccnc3[nH]ccc23)o1)N1CCCCC1,39
c1ccc(Nc2nccc(-c3ccncc3)n2)cc1,52
N=C(N)Nc1ccc(C(=O)Oc2ccc3cc(C(=N)N)ccc3c2)cc1,79
N#C/C(=C\Nc1cc(C(F)(F)F)cc(C(F)(F)F)c1)S(=O)(=O)Cc1ccc(Cl)cc1,57
Oc1ccc2ccccc2c1N=Nc1ccccn1,61
Nc1nc(Nc2ccccc2)sc1C(=O)c1ccccc1Cl,51
Cc1cccc(NC(=O)CS(=O)(=O)c2nc(-c3ccccc3)cn2-c2ccc(Cl)cc2)c1C,26

# Further values, each from its own experiment
Compound,target or system,assay,test system,conditions,how to read,measurement,result
CCOP(=O)(OCC)Oc1ccc([N+](=O)[O-])cc1,,SPME sorption isotherm,PBS,,,log Freundlich coefficient,2.44
CC[C@H](C)[C@H](NC(=O)[C@H](CCCCN)NC(C)=O)C(=O)N[C@@H](Cc1ccccc1)C(=O)N[C@@H](CCSC)C(=O)N[C@@H](CCCCN)C(N)=O,"Sodium channel protein type 2 subunit alpha, with beta-1 subunit (Scn2a, Rattus norvegicus, UniProt P04775, F1489Q/N209D)","sodium current, inside-out patch clamp",Xenopus laevis oocytes,"100 µM, F1489Q mutant, voltage 0 mV",,blocking rate constant,1390 ± 96 s⁻¹
COc1cc(NC(=O)Nc2cccc(CNC(=O)O[C@H]3CCOC3)c2)ccc1-c1cnco1,Monkeypox virus,viral replication,replication-deficient,"10 µM, 60 h",,inhibition,99.9%
FC(F)(F)c1cc(C(F)(F)F)c2ccc3nc(-c4nnco4)cn3c2n1,"Polyprotein P1234, nsP4 (Chikungunya virus, UniProt Q8JUX6)",microscale thermophoresis,Chikungunya virus S27,"approximate, saturation not reached",,Kd,> 207000 nM
CCC(=O)[C@]12N[C@H]3C[C@@]4(C(=O)N(OC)c5ccccc54)[C@H](OC[C@H]31)[C@@H]2O,,,Kunming mice both sexes,"intraperitoneal, 7 days",,LD50,> 30 mg/kg
COc1cc2ncnc(Nc3cccc(Cl)c3)c2cc1OC,Monkeypox virus,viral infection,replication-deficient,33.33 µM,relative to: untreated,infection,0.05% and 0.022% and 0.04%
CSCC[C@H](NC(=O)[C@H](CC(C)C)NC(=O)[C@H](C)N)C(=O)N[C@@H](CC(C)C)C(=O)N[C@@H](CCCNC(=N)N)C(=O)N[C@@H](CC(C)C)C(=O)N[C@@H](CC(C)C)C(=O)N[C@@H](CCCNC(=N)N)C(=O)N[C@H](C(=O)O)[C@@H](C)O,,"epitope-specific T-cell response, intracellular cytokine staining","PBMC, human","10 µg/mL, 72 h",,IFN-γ+ CD8+ T cells,4.3%
C=C[C@]12CN(C)[C@@H]3[C@H]4CO[C@H](C[C@H]41)[C@]1(C(=O)Nc4ccccc41)[C@@H]32,,,Kunming mice both sexes,"intraperitoneal, 7 days",,LD50,> 30 mg/kg
O=c1ccn([C@@H]2O[C@](F)(CO)[C@@H](O)[C@H]2O)c(=O)[nH]1,Mammarenavirus lassaense,viral replication,"Vero C1008, clade IV Josiah",,,EC50,780 ± 620 nM

# Repeated from above (block 1):
SMILES,inhibition [%]
Oc1ccc2ccccc2c1N=Nc1ccccn1,61
c1ccc(Nc2nccc(-c3ccncc3)n2)cc1,52
